# Experimental data pooled from the literature.
# Protocols differ between the studies behind these lines. Several values in a cell are separate wells, animals, samples, runs or records. ± marks the error that the study gave.
Structure (SMILES),target or system,assay,test system,conditions,how to read,endpoint,value
Cc1cc(-c2ccc(C(=O)[C@@H]3CCCC[C@H]3C(=O)Nc3cnn4c3C(=O)NCC4)cc2)[nH]n1,,,"human, urine and faeces","oral, 200 mg",reference: dose,cumulative recovery of radioactivity,83.1% and 82.6% and 90.4% and 80% and 86.3% and 88.8%
C/C(N)=N/C(=N\S(=O)(=O)c1ccc(C(F)(F)F)cc1)N1C[C@H](c2ccccc2)C(c2ccc(Cl)cc2)=N1,,,"male beagle dog, plasma","intravenous, 2 mg/kg",,Vd,2 L/kg
COc1cc(N2CCN(C(=O)C3CCCN3)CC2)ccc1Nc1ncc(Cl)c(Nc2ccccc2P(C)(C)=O)n1 (centres unmarked),,,"nude mice, NCI-H3122 xenograft","intraperitoneal, 10 mg/kg every other day, day 16",,body weight,27.8 g and 24.9 g and 23.2 g and 28.1 g and 25.2 g
CCCCN1C(=O)c2cccc3c(NCCCCCN4CCOCC4)ccc(c23)C1=O,,,acetonitrile,,,fluorescence lifetime,10.2 ns
CN(O)C(=O)CCC(=O)NCCCN(CCCCN(CCCNC(=O)CCC(=O)N(C)O)C(=O)CCC(=O)N(C)O)C(=O)CCC(=O)N(C)O.[89Zr],,radio-TLC,aqueous buffer,"7 d, pH 8.5, 37 °C, 89Zr-labelled complex, together with: DTPA 1000-fold excess",,intact complex,98.2 ± 1.4%
Cc1ccc(OCC(=O)N(Cc2cccs2)c2ccn[nH]2)cc1,,,pooled dog liver microsomes,"10 µM, 60 min, without NADPH",reference: time 0,remaining compound,88%
N#C[C@@H]1CC(F)(F)CN1C(=O)CNC(=O)c1ccnc2c(NC(=O)C(CCCCNC(=O)CCOCCOCCOCCOCCOCCOCCNC(=O)CN3CCN(CC(=O)[O-])CCN(CC(=O)[O-])CCN(CC(=O)[O-])CC3)NC(=O)CCCc3ccc(I)cc3)cccc12.[68Ga+3] (some centres unmarked),,,PBS,"120 min, 37 °C, 68Ga-labelled",,radiochemical stability,99.21 ± 0.7%
O=C(Nc1cnccc1-c1ccc([18F])cc1)c1ccnc(NC(=O)C2CC2)c1,,ex vivo gamma counting,"GSK-3β transgenic mice, late-stage, thalamus","intravenous, 120 min, mean, P-gp inhibitor pretreatment, together with: tariquidar 15 mg/kg iv",,SUV,0.22
COc1cccc(OC)c1-c1cc(C(=O)NC2(C(=O)O)C3CC4CC(C3)CC2C4)nn1-c1ccc(C(=O)N(C)CCCN(C)C(=O)[C@H](CCCCNC(=O)[C@H](CC(C)C)NC(=O)C2OC2C(=O)O)NC(=O)CN2CCN(CC(=O)[O-])CCN(CC(=O)[O-])CCN(CC(=O)[O-])CC2)cc1C(C)C.[177Lu+3] (mixture of isomers),,,mouse HT-29 xenograft,"72 h, biodistribution",reference: tumour over stomach,tumour-to-stomach ratio,28.8
Nc1ncnc2[nH]c(/C=C/c3ccc(Cl)cc3)nc12,,HPLC,solution,after 1 h light exposure,,purity,95.5%
N#C[C@@H]1CC(F)(F)CN1C(=O)CNC(=O)c1ccnc2c(NC(=O)[C@@H](N)CCCCNC(=O)CCOCCOCCOCCOCCOCCOCCNC(=O)CN3CCN(CC(=O)[O-])CCN(CC(=O)[O-])CCN(CC(=O)[O-])CC3)cccc12.[177Lu+3],,,human serum,"1 h, 37 °C, 177Lu-labelled",,radiochemical stability,99.42 ± 0.5%
OCC1OC(n2cnc3c(NCc4ccc(Br)s4)ncnc32)C(O)C1O (centres unmarked),,equilibrium dialysis,dog plasma,"5 µg/mL, 4 h, pH 7.4",,fraction unbound,0.119
CC(C)Cc1ccc(C(C)C(=O)NC(CCCCNC(=O)CCOCCOCCOCCOCCOCCOCCNC(=O)CN2CCN(CC(=O)[O-])CCN(CC(=O)[O-])CCN(CC(=O)[O-])CC2)C(=O)Nc2cccc3c(C(=O)NCC(=O)N4CC(F)(F)C[C@H]4C#N)ccnc23)cc1.[68Ga+3] (some centres unmarked),,,PBS,"60 min, 37 °C, 68Ga-labelled",,radiochemical stability,99.9 ± 1.2%
C[n+]1cccc2cc(/C=N/NC(=O)c3ccc4ccc(C(=O)N/N=C/c5ccc6c(ccc[n+]6C)c5)nc4n3)ccc21,hp2 hairpin duplex DNA,FRET melting,,1 µM,,ΔTm,0.8 ± 0.4 °C
Fc1cncc(-c2ccc3[nH]c4ncnc(N[C@H]5CC[C@H](N6CCOCC6)CC5)c4c3c2)c1,,,"ICR mice, plasma","intravenous, 1 mg/kg",,clearance,145 ± 90.7 mL/min/kg
C[n+]1cccc2cc(/C=N/NC(=O)c3cncc(C(=O)N/N=C/c4ccc5c(ccc[n+]5C)c4)n3)ccc21,MYC parallel G4 DNA,FRET melting,,"1 µM, DNA 0.2 µM, together with: duplex DNA competitor 10 µM",,ΔTm,8.4 ± 0.5 °C
O=C(Nc1cnccc1-c1ccc([18F])nc1)c1ccnc(NC(=O)C2CC2)c1,,,"FVB/NJ mouse, both sexes, brain","intravenous, 30 min",,SUV,0.071
CCCCN1C(=O)c2cccc3c(NCCCCCCCCN4CCOCC4)ccc(c23)C1=O,,,dichloromethane,,,Stokes shift,89 nm
Cc1cc(F)ccc1-c1cc(N2C[C@H]3COC(O)CN3C[C@H]2CO)ncc1N(C)C(=O)C(C)(C)c1cc(C(F)(F)F)cc(C(F)(F)F)c1 (some centres unmarked),,,human liver microsomes,,,fraction unbound in microsomes,0.591
C#CCCCC(O)/C=C/C(=O)NC1(c2ccc(-c3nc4ccn5c(=O)[nH]nc5c4cc3-c3ccccc3)cc2)CCC1 (centres unmarked),,,"microsomes, liver, mouse CD-1","1 µM, pH 7.4, 37 °C, phosphate buffer 100 mM, together with: NADPH",,first-order rate constant,-0.024 ± 0.001 min⁻¹
O=C1c2sc(-c3ccc(N4CCC(F)C4)nc3F)nc2CCN1c1cccnc1 (centres unmarked),,,"CD1 mouse, brain","i.v., dose not given, 0.25 h",,concentration,157 ng/g and 260 ng/g and 218 ng/g
Cc1nc(N)nc2c1C(=O)N[C@@H](c1ccc(F)cc1-c1cccc(O[11CH3])n1)C2,,ex vivo biodistribution,"mice, U87 subcutaneous xenograft, spleen","60 min post-injection, baseline, vehicle pre-treatment",,tracer uptake,2.6 ± 1 %ID
O=S(=O)(c1ccc(-c2ccc3ncnc(Nc4ccc(OCc5cccc(F)c5)c(Cl)c4)c3c2)cc1)N1CCOCC1,Leishmania major,"intracellular amastigote growth, luciferase",RAW264.7 macrophages,,,EC50,1.4 µM
CCc1cnc(NC(=O)c2cc(S(=O)(=O)N3CCOCC3)ccc2N(C)C2CCCC2)s1,,,mouse,"10 mg/kg, 3 doses",,serum AST,112 IU/L
CC[C@H](C)[C@@H]1NC(=O)[C@H](Cc2ccc(O)cc2)NC(=O)CCCSC[C@@H](C(=O)N(CC(=O)N[C@@H](CC(C)C)C(=O)NCC(N)=O)Cc2ccc(F)cc2)NC(=O)[C@H](CC(N)=O)NC(=O)[C@H](CCC(N)=O)NC1=O,,,"human, plasma","intranasal, 50 µg every 3 h, 11 doses, after second dose",,terminal half-life,2.97 h
CCCCN1C(=O)c2cccc3c(NCCCCCCCCCCN4CCOCC4)ccc(c23)C1=O,,,DMSO,,,Stokes shift,90 nm
C[Si]1(C)O[Si](C)(C)O[Si](C)(C)O[Si](C)(C)O[Si](C)(C)O[Si](C)(C)O1,,,octanol/water,,,octanol-water partition coefficient,7.41e+08
Cc1nc2cccc(OCC(C)(C)C(=O)NC(C)C)c2c(N)c1C(=O)O.O=P(O)(O)O,,,"male Sprague-Dawley rat, plasma","oral, 30 mg/kg",,Tmax,0.44 h
CCCCN1C(=O)c2cccc3c(NCCN4CCOCC4)ccc(c23)C1=O,,,water,pH 6.0,,Stokes shift,97 nm
C=C(NC(=O)c1csc(-c2nc3c(cc2O)-c2nc(cs2)C(=O)NC(C(C)O)C(=O)NC(=C(C)OC)c2nc(cs2)C(=O)NC2c4nc(cs4)C(=O)NC(COC(=O)c4c5c6c(cccc6n4O)COC(=O)C(OC4CC(C)(O)C(N(C)C)C(C)O4)C2OC5)c2nc-3cs2)n1)C(N)=O (centres unmarked),,,"Sprague-Dawley rat, female, plasma","intravenous infusion, 18 mg/kg single dose",,clearance,51.4 mL/min/kg
O=C([O-])CN1CCN(CC(=O)[O-])CCN(CC(CCCc2ccccc2[N+](=O)[O-])N(CC(=O)[O-])CC(=O)[O-])CC1.[90Y+3] (centres unmarked),,HPLC,human serum,"183 h, pH 7, 37 °C",,intact radiolabelled complex,100%
C=CC(=O)Nc1cc(Nc2nccc(-c3cn(C)c4ccccc34)n2)c(OC)cc1N(C)CCNC,,storage stability,human dried blood spots,"5 h, -80 °C, low QC level",,recovery,98.8%
CCCC[C@H](NC(=O)CNC(=O)CNC(=O)[C@H](CCCCNC(=O)[C@H](CC(=O)O)NC(=O)C(C)c1ccc(CC(C)C)cc1)NC(=O)CN1CCN(CC(=O)O)CCN(CC(=O)O)CCN(CC(=O)O)CC1)C(=O)N[C@H]1CC(=O)NCCCC[C@@H](C(N)=O)NC(=O)[C@H](Cc2c[nH]c3ccccc23)NC(=O)[C@H](CCCNC(=N)N)NC(=O)[C@@H](Cc2ccccc2)NC(=O)[C@H](Cc2c[nH]cn2)NC1=O (some centres unmarked) [lutetium-177 labelled],,,"C57 mice, tumour","intravenous, 0.037 MBq, 0.5 h",reference: lung,tumour-to-tissue ratio,4.11
CNc1cc(N)c(C(N)=O)cn1,,,"Han Wistar rats, male, plasma","oral, 30 mg/kg, 0.25 h",,plasma concentration,17.4 µM
CC[C@H](C)[C@H](NC(=O)[C@H](Cc1ccc(O)cc1)NC(=O)[C@@H](NC(=O)[C@H](CCCNC(=N)N)NC(=O)[C@@H](N)CC(=O)O)C(C)C)C(=O)N[C@@H](Cc1c[nH]cn1)C(=O)N1CCC[C@H]1C(=O)O,,LC-MS/MS,"Sprague-Dawley rat, both sexes, plasma","subcutaneous, 10 mg/kg/day, day 27, 1 h, 60 min",,plasma concentration,19 ng/mL

# Repeated from above:
Structure (SMILES),target or system,assay,test system,conditions,how to read,endpoint,value
CCCCN1C(=O)c2cccc3c(NCCN4CCOCC4)ccc(c23)C1=O,,,water,pH 6.0,,Stokes shift,97 nm
C[n+]1cccc2cc(/C=N/NC(=O)c3ccc4ccc(C(=O)N/N=C/c5ccc6c(ccc[n+]6C)c5)nc4n3)ccc21,hp2 hairpin duplex DNA,FRET melting,,1 µM,,ΔTm,0.8 ± 0.4 °C
C#CCCCC(O)/C=C/C(=O)NC1(c2ccc(-c3nc4ccn5c(=O)[nH]nc5c4cc3-c3ccccc3)cc2)CCC1 (centres unmarked),,,"microsomes, liver, mouse CD-1","1 µM, pH 7.4, 37 °C, phosphate buffer 100 mM, together with: NADPH",,first-order rate constant,-0.024 ± 0.001 min⁻¹
